Published values pooled from the literature.
Lines come from different studies, so protocols differ. Numbers after ± are the reported error.

Cc1ccc(OCC(=O)N(Cc2cccs2)c2ccn[nH]2)cc1 — Cmax (male beagle dog, plasma; intravenous, 1.0 mg/kg): 1330 ± 94 ng/mL
NC(=O)c1ccc(C(=O)NOCc2ccc(Sc3cccc(Cl)c3)c(C(F)(F)F)c2)cc1 — Cmax (male ICR mouse, plasma; intravenous, 10 mg/kg): 51300 ng/mL
CC(=O)N[C@H](CC(=O)O)C(=O)N[C@H](Cc1c[nH]c2ccccc12)C(=O)N[C@H](Cc1ccccc1)C(=O)N[C@H](CCCCN)C(=O)N[C@H](C)C(=O)N[C@H](Cc1ccccc1)C(=O)N[C@H](Cc1ccc(O)cc1)C(=O)N[C@H](CC(=O)O)C(=O)N[C@H](CCCCN)C(=O)N[C@@H](C(=O)N[C@H](C)C(=O)N[C@H](CCC(=O)O)C(=O)N[C@H](CCCCN)C(=O)N[C@H](Cc1ccccc1)C(=O)N[C@H](CCCCN)C(=O)N[C@H](CCC(=O)O)C(=O)N[C@H](C)C(=O)N[C@H](Cc1ccccc1)C(N)=O)C(C)C — Cmax (statin-treated high-risk CHD patients, plasma; oral, 500 mg daily, day 13, 0 to 8 h, mean, all subjects): 80.2 ng/mL
CC(C)C[C@@H](NC(=O)[C@H](NC(=O)[C@H]1CCCN1)[C@H](C)O)C(=O)N[C@H](Cc1c[nH]cn1)C(=O)N[C@@H](C(=O)N[C@H](Cc1c[nH]cn1)C(=O)N[C@H](CC(N)=O)C(=O)N[C@H](CCCNC(=N)N)C(=O)N[C@H](CCCNC(=N)N)C(=O)N[C@H](CCCNC(=N)N)C(=O)N[C@H](CCCNC(=N)N)C(=O)N[C@H](CCCNC(=N)N)C(N)=O)[C@H](C)O — Cmax (Beagle dog, CSF; intravenous, 3 mg/kg, single dose): 71 ± 32 ng/mL
CC(C)(O)c1ncc([S@](N)(=O)=NC(=O)Nc2c3c(cc4c2CCC4)CCC3)s1 — Cmax (healthy human; oral, 30 mg once daily, day 1, capsule formulation, geometric mean): 2640 ng/mL
Cc1[nH]c(/C=C2\C(=O)Nc3ccc(F)cc32)c(C)c1NC(=O)CCN1CCN(C)CC1 — Cmax (Beagle dog, both sexes, plasma; oral, 3 mg/kg): 50.9 ± 31.9 ng/mL
CCCC[C@H](NC(C)=O)C(=O)N[C@H]1CC(=O)NCCCC[C@@H](C(=O)N[C@@H](C(=O)N2CCC[C@@H]2C(N)=O)C(C)C)NC(=O)[C@H](Cc2c[nH]c3ccccc23)NC(=O)[C@H](CCCN=C(N)N)NC(=O)[C@@H](Cc2ccc3ccccc3c2)NC(=O)[C@@H]2CCCN2C1=O — Cmax (Beagle dog, both sexes, plasma; subcutaneous, once daily, 2.25 mg/kg, day 5): 5000 ± 800 ng/mL
N=C(N)NCCC[C@@H]1NC(=O)[C@H](Cc2c[nH]c3ccccc23)NC(=O)[C@@H](CC2CCCCC2)NC(=O)[C@@H]2CCCN2C(=O)[C@@H](NC(=O)CCc2ccccc2)CCCNC1=O — Cmax (C57BL/6J mouse, plasma; subcutaneous, 1 mg/kg, single dose): 5620 ng/mL
Cc1ncc2c(n1)CN(C(=O)Nc1nc(-c3cccs3)ccc1N)C2 — Cmax (beagle dog, male; oral, 120 mg/kg daily, day 14, 14-day toxicity study): 18600 ng/mL
Cc1ccc(OCC(=O)O)cc1 — Cmax (Sprague-Dawley rat, male, plasma; oral gavage, 10 mg/kg of parent drug): 2560 ± 1240 ng/mL
CCCC[C@H](NC(C)=O)C(=O)N[C@H]1CC(=O)NCCCC[C@@H](C(=O)N[C@@H](C(=O)N2CCC[C@@H]2C(N)=O)C(C)C)NC(=O)[C@H](Cc2c[nH]c3ccccc23)NC(=O)[C@H](CCCN=C(N)N)NC(=O)[C@@H](Cc2ccc3ccccc3c2)NC(=O)[C@@H]2CCCN2C1=O — Cmax (dog, cachectic, plasma; subcutaneous, 0.75 mg/kg once daily, day 28, 1 h post-dose): 1210 ± 200 ng/mL

A few entries again:
Cc1ncc2c(n1)CN(C(=O)Nc1nc(-c3cccs3)ccc1N)C2 — Cmax (beagle dog, male; oral, 120 mg/kg daily, day 14, 14-day toxicity study): 18600 ng/mL
